# Measured values from different studies.
# Protocols differ between the studies behind these lines. Numbers after ± are the reported error.
SMILES,assay,system,setting,half-life [h]
O=C1CC[C@H](N2Cc3cc(N4CCN(CC5CCN(c6ccc([C@@H]7c8ccc(O)cc8CC[C@@H]7c7ccccc7)cc6)CC5)CC4)ccc3C2=O)C(=O)N1,,human,"oral, 200 mg, together with: rosuvastatin 10 mg",29.9
C[C@H]1[C@H]2N(C(=O)CN(C)N2C(=O)NCc2ccccc2)[C@@H](Cc2ccc(OP(=O)(O)O)cc2)C(=O)N1Cc1cccc2cccnc12,,"human, plasma","intravenous infusion, 280 mg/m2 over 4 h, median, single dose",0.5
C[C@H](Oc1ccc(Br)cc1-c1ccon1)C(=O)O,"LC-MS/MS, non-compartmental","human, plasma","200 mg once daily, day 1, multiple ascending dose, mean",5.34
C#C[C@]1(COP(=O)(O)OP(=O)(O)OP(=O)(O)O)O[C@@H](n2cnc3c(N)nc(F)nc32)C[C@@H]1O,refers to: intracellular triphosphate,"human, PBMC",,116 to 211
CC(C)[C@H](N)C(=O)NCCCS(=O)(=O)O,,"human, plasma","oral, 171 mg once daily, day 1, fasted, capsule",0.918
O=C(O)CCC(=O)O.[2H]C([2H])([2H])Oc1cc(C)c2[nH]ccc2c1CN1CC[C@@H](C2CC2)C[C@H]1c1ccc(C(=O)O)cc1,"LC-MS/MS, mean","human, plasma","400 mg, single dose, fasting",33.4
Cn1nnc2c(C(N)=O)ncn2c1=O,,"human patients, plasma","oral, together with: talazoparib",1.9 ± 0.7
COc1cc(C(=O)NC2CCN(C)CC2)c(F)cc1Nc1ncc(C(F)(F)F)c(Oc2cccc3c2C(=O)N(C)C3)n1,,"human, Taiwanese, plasma","oral, 200 mg single dose, geometric mean",20.4
C#C[C@]1(CO)O[C@@H](n2cnc3c(N)nc(F)nc32)C[C@@H]1O,,"human, plasma","oral, 200 mg, single dose, geometric mean",61.3
COc1ccc([C@@H](O)c2cc(-c3ncnc4cc(N5CCOCC5)ccc34)c(F)cc2Cl)nn1,,"human, plasma","oral, 200 mg once daily, single dose, geometric mean",6.95
CC1(COc2ccc3c(c2)ncn3-c2ccc3cccc(N4CCC(N)CC4)c3n2)COC1,,"human patients, recurrent/progressive HGG or DIPG, serum","oral, 100 mg/m^2, day 28, median",14.9
CO[C@@H]1[C@H](OC(=O)N2CC(CCN3CCOCC3)C2)CC[C@]2(CO2)[C@H]1[C@@]1(C)O[C@@H]1CC=C(C)C,,"humans, plasma","subcutaneous, 0.6 mg twice weekly, first dose",0.9 ± 0.57
CC(=O)O[C@H]1C(=O)[C@@]2(C)[C@H]([C@H](OC(=O)c3ccccc3)[C@]3(O)C[C@H](OC(=O)[C@H](O)[C@@H](NC(=O)c4ccccc4)c4ccccc4)C(C)=C1C3(C)C)[C@]1(OC(C)=O)CO[C@@H]1C[C@@H]2O,noncompartmental analysis,"human cancer patients, plasma","intravenous infusion, 60 mg/m^2, cycle 1 day 1, together with: daily oral co-medication",9.25
Cc1nc2ccc(F)cc2n1-c1nc(N)c(F)c(Nc2ccc(C(F)(F)F)cc2)n1,,"human patients, plasma","oral, 400 mg twice weekly, cycles 1 and 2 pooled",10.1
CO[C@H]1C[C@@H]2CC[C@@H](C)[C@@](O)(O2)C(=O)C(=O)N2CCCC[C@H]2C(=O)O[C@H]([C@H](C)C[C@@H]2CC[C@@H](OC(=O)NCCOCCOCCOCCOCCOCCOCCOCCOCCC(=O)N3CCc4cc(Cn5nc(-c6ccc7oc(N)nc7c6)c6c(N)ncnc65)ccc4C3)[C@H](OC)C2)C[C@@H](O)[C@H](C)/C=C(\C)[C@@H](O)[C@@H](OC)C(=O)[C@H](C)C[C@H](C)/C=C/C=C/C=C/1C,,"human patients, plasma","intravenous, 10 mg, cycle 1 day 15, weekly dosing, 1 h infusion, arithmetic mean",4.2
CC1=C(c2cccc(O)c2)[C@H](c2ccc(OCCN3CC(CF)C3)cc2)Oc2ccc(O)cc21,,"human, plasma","oral, 1400 mg single dose",18
CCNCc1cc(Nc2ccnc3cc(Cl)ccc23)ccc1O,,"human, both sexes, plasma","oral, dose not given, fixed-dose combination",169
CC(C)C[C@H](NC(=O)[C@H](CC(C)C)NC(=O)[C@H](Cc1c[nH]c2ccccc12)NC(=O)[C@H](CCC(=O)O)NC(=O)[C@@H](NC(=O)[C@H](Cc1ccccc1)NC(=O)[C@H](CCC(=O)O)NC(=O)[C@H](CCCCNC(=O)COCCOCCNC(=O)COCCOCCNC(=O)CC[C@H](NC(=O)CCCCCCCCCCCCCCCCCCC(=O)O)C(=O)O)NC(=O)[C@H](C)NC(=O)[C@H](CCCCN)NC(=O)[C@H](CCCCN)NC(=O)[C@H](CCC(=O)O)NC(=O)[C@H](CC(=O)O)NC(=O)[C@H](CC(C)C)NC(=O)[C@H](Cc1ccc(O)cc1)NC(=O)[C@H](CCCCN)NC(=O)[C@H](CO)NC(=O)[C@H](Cc1ccc(O)cc1)NC(=O)[C@H](CC(=O)O)NC(=O)[C@H](CO)NC(=O)[C@@H](NC(=O)[C@H](Cc1ccccc1)NC(=O)[C@@H](NC(=O)CNC(=O)[C@H](CCC(N)=O)NC(=O)C(C)(C)NC(=O)[C@@H](N)Cc1c[nH]cn1)[C@@H](C)O)[C@@H](C)O)C(C)C)C(=O)N[C@@H](CCC(=O)O)C(=O)NCC(=O)NCC(=O)N1CCC[C@H]1C(=O)N[C@@H](CO)C(=O)N[C@@H](CO)C(=O)NCC(N)=O,,human,"subcutaneous, 16 mg weekly, week 20",~192
NCCCS(=O)(=O)O,,"human, plasma","oral, 256.5 mg once daily, day 14, capsule, fasted, dosed days 8-14",46.4
CN1CCC(COc2cnc(-c3cccc(Cn4nc(-c5cccc(C#N)c5)ccc4=O)c3)nc2)CC1,,human,"dose not given, geometric mean, together with: itraconazole 200 mg once daily",40.9
C[C@@H](Cn1ccc(-c2ccc(C#N)c(Cl)c2)n1)NC(=O)c1cc([C@@H](C)O)[nH]n1,,"human, fasted, plasma","oral, 300 mg darolutamide tablet, geometric mean",13.6
Cl.[2H]C([2H])([2H])CC(=O)c1cnc(NC(=O)C2CC2)cc1Nc1cccc(-c2ncn(C([2H])([2H])[2H])n2)c1OC,geometric mean,human,"oral, 5 mg single dose, fasted, liquid",8.66
N#Cc1cc(NC(=O)[C@H]2c3ccccc3C(=O)N(CC(F)(F)F)[C@@H]2c2cccnc2)ccc1F,,"human, plasma","oral, 600 mg, fed, median, interim",18.7
CCOc1c([C@H](C)n2nc(C)c3c(N)ncnc32)cc(Cl)c(F)c1[C@@H]1CNC(=O)C1,,"human patients, plasma","oral, 15 mg once daily, cycle 1 day 15, monotherapy, geometric mean",10.8
CC(C)n1c(Nc2cccnc2)nc2cnc(Nc3ccc(N4CCN(C)CC4)cc3)nc21,LC-MS/MS,"human, male, plasma","oral, 100 mg, day 11, together with: itraconazole 200 mg",43.6
COc1cc(Nc2ncc3c(n2)-c2ccc(Cl)cc2C(c2c(F)cccc2OC)=NC3)ccc1C(=O)O,,"human patients, plasma","oral, 40 mg, cycle 1 day 1, together with: pembrolizumab",4.6
Cc1nc(-c2ccc(OCC(C)C)c(C#N)c2)sc1C(=O)O,,"human, plasma","oral, 20 mg once daily, together with: verinurad 10 mg",7.23
NC(=O)c1[nH]cnc1N,,"human patients, plasma","IV infusion over 1 h, 1000 mg/m^2 DTIC, cycle 1 day 1, DTIC alone",2.89
N#CCNC(=O)c1ccc(-c2ccnc(Nc3ccc(N4CCOCC4=O)cc3)n2)cc1,,"healthy human volunteers, plasma","100 mg momelotinib once daily, day 7, fed, momelotinib alone",6.68
CC(C)=CCC/C(C)=C/CC/C(C)=C/CC[C@@](C)(O)CCC1=C(C)C(=O)C(C)=C(C)C1=O,,"healthy human, plasma","oral, 400 mg, together with: itraconazole 200 mg",12.2
O=C(COc1ccc(Cl)cc1)NC12CC(c3nnc([C@H]4C[C@@H](OC(F)(F)F)C4)o3)(C1)C2,,"healthy human volunteers fasted, plasma","oral, 400 mg single dose, geometric mean",35
Cc1ccc(C)c(OCCCC(C)(C)C(=O)O)c1,,"human, plasma","oral, dose not given, after lopinavir/ritonavir, geometric mean, together with: lopinavir/ritonavir",4.4
O=C(NC[C@H](O)CO)c1ccncc1Nc1ccc(I)cc1F,,human,,~6
COc1ncc(-c2nc3c(n2C(C)C)[C@H](c2ccc(Cl)cc2)N(c2cc(Cl)cn(C)c2=O)C3=O)c(OC)n1,,"human, plasma","oral, 150 mg, C1D1, high-dose, median",13.1
CC(C)c1nc(N(C)S(C)(=O)=O)nc(-c2ccc(F)cc2)c1/C=C/[C@@H](O)C[C@@H](O)CC(=O)O,,"human, plasma","oral, 20 mg, day 2, mean, single agent",15
CCN1CCN(Cc2ccc(Nc3ncc(F)c(-c4cc(F)c5nc6n(c5c4)[C@H](C)CCC6)n3)nc2)CC1,,"human, plasma","400 mg single dose, mean",39.9
CC(C)(Sc1ccncc1-c1ccc(C#N)c2ccccc12)C(=O)O,,human,"oral, 10 mg once daily, together with: febuxostat 0 mg",20.3
CN(C(=O)C(C)(C)c1cc(C(F)(F)F)cc(C(F)(F)F)c1)c1cnc(N2C[C@H]3COCCN3C[C@H]2CO)cc1-c1ccc(F)cc1[14CH3],refers to: total radioactivity,"human, whole blood","oral, 120 mg",11.6
COc1cc([C@H]2Oc3cc([C@H]4Oc5cc(O)cc(O)c5C(=O)[C@@H]4O)ccc3O[C@@H]2CO)ccc1O,,"OATP1B1/1B3 humanized mice, plasma","oral gavage, 500 mg/kg silymarin",0.38
Cc1ccc([C@@H]2O[C@H](CO)[C@@H](O)[C@H](O)[C@H]2O)cc1Cc1ccc(-c2ccc(F)cc2)s1,,"human, maintenance hemodialysis patients","oral, 100 mg once daily, steady state, mean",10.9
CC(C)(C)OC[C@@H]1C(=O)NCCN1C(=O)C[C@H](N)Cc1cc(F)c(F)cc1F,,"human, plasma","oral, steady state, EP treatment",22.2 ± 4.08
C=CC(=O)N(C)CCOc1c(N)ncnc1-c1cc(F)cc(NC(=O)c2ccc(C3CC3)cc2F)c1C,,"human, whole blood","oral, 400 mg, single ascending dose, median",11.4
Cc1cc(OCCOCCC(F)(F)P(=O)(O)O)ccc1CCc1cnc2c(N)nc3cc(CCC(=O)O)ccc3c2c1,,"human, serum","intratumoral, 100 µg every 2 weeks, cycle 1 day 1",19.9
COC(=O)N[C@@H](C)CNc1nccc(-c2cn(C(C)C)nc2-c2cc(Cl)cc(NS(C)(=O)=O)c2F)n1,,"human patients, plasma","oral, 450 mg twice daily, day 1, single dose, median, together with: binimetinib 45 mg once daily",3.9
CNC(=O)n1ccc2cc(Oc3ccnc(NC(=O)c4ccc(C5CCN(CCO)CC5)cc4)c3)c(OCCOC)cc21,,"healthy human, plasma","oral, 35 mg, geometric mean, together with: rabeprazole 20 mg",28.9
COc1cc(C(=O)NC2CCN(C)CC2)c(F)cc1Nc1ncc(C(F)(F)F)c(Oc2cccc3c2C(=O)N(C)C3)n1,,"human patients, plasma","oral, 50 mg single dose, geometric mean",25.2
C=CC(=O)NC1CCN(c2ncc3ncnc(Nc4ccc(Oc5ccc6c(c5)ncn6C)c(C)c4)c3n2)CC1,,"human, male, plasma","oral, 240 mg single dose, fed, geometric mean",28.4
Cc1noc(C)c1-c1cc(C(O)(c2ccccn2)c2ccccn2)c2nc(C3CC3)[nH]c2c1,,"human patients, plasma","oral, 6 mg, cycle 1 day 8, monotherapy",17.8
